Results from different studies.
Lines come from different studies, so protocols differ. “And” joins repeats or separate records; there may be more than shown. ± marks the error that the study gave.
Kir3.1/Kir3.4: Kir3.1/Kir3.4 (Homo sapiens, UniProt P48544+P48549)
pyrD: Dihydroorotate dehydrogenase (quinone) (pyrD, Acinetobacter baumannii, UniProt B7GZW7)
AKR1B1: Aldo-keto reductase family 1 member B1 (AKR1B1, Homo sapiens, UniProt P15121)

N[C@@H](CC(=O)O)C(=O)Nc1ccc2ccccc2c1  hydrolysis (rat aminopeptidase III; substrate; concentration not given, pH 7.0): inactive
NCCCCC(=O)O  normalised MST signal (Sodium- and chloride-dependent taurine transporter (SLC6A6, Homo sapiens, UniProt P31641, Y138A); binding, microscale thermophoresis; 7.81 µM, room temperature, added: 50 nM labelled protein; higher = more binding): 0.00773
Cn1c[n+]([C@@H]2O[C@H](COP(=O)(O)OP(=O)([O-])OP(=O)(O)OC[C@H]3O[C@@H](n4cnc5c(=O)[nH]c(N)nc54)[C@H](O)[C@@H]3O)[C@@H](O)[C@H]2O)c2nc(N)[nH]c(=O)c21  hydrolysis (m7GpppX diphosphatase (DCPS, Homo sapiens, UniProt Q96C86); substrate, HPLC; concentration not given, 15 min): 67 ± 7%
O=C(C[C@@H](C(F)F)n1ccc(F)n1)N1CCC(O)(Cn2cnc3c(cnn3-c3ccc(F)cc3)c2=O)CC1  binding enthalpy (Ubiquitin carboxyl-terminal hydrolase 7 (USP7, Homo sapiens, UniProt Q93009, V517F); isothermal titration calorimetry; concentration not given, USP7 V517F): -17.3 ± 2.4 kcal/mol
COc1cc(-c2cc(C(C)=O)n3ccccc23)cc(OC)c1Cn1ccnc1  ΔTm (Histone acetyltransferase KAT2B (KAT2B, Homo sapiens, UniProt Q92831)): 4.1 °C
Oc1ccccc1-c1n[nH]cc1-c1ccnc2ccccc12  log2 fold change (Cyclin-dependent kinase 1 (CDC28, Candida albicans, UniProt P43063); kinase binding, MIB/MS competition; Candida albicans lysate; 1 µM; baseline: DMSO, negative = stronger binding): -0.07
O=C(Nc1ccccc1)c1ccc2c(c1)C(=O)NC2=O  selectivity ratio (Amine oxidase [flavin-containing] B (MAOB, Homo sapiens, UniProt P27338); baseline: IC50 MAO-A over IC50 MAO-B): > 12
CC(C)(COP(=O)(O)OP(=O)(O)OC[C@H]1O[C@@H](n2cnc3c(N)ncnc32)[C@H](O)[C@@H]1OP(=O)(O)O)[C@@H](O)C(=O)NCCC(=O)NCCS  Ki (Carnitine O-acetyltransferase (CRAT, Columba livia, UniProt P52826); stopped-flow global fit; pH 7.8, ambient, ordered bi-bi mechanism): 102 µM
Nc1nc2c(ncn2[C@@H]2O[C@H](COP(=O)(O)O)[C@@H](O)[C@H]2O)c(=O)[nH]1  reaction rate (GUK1 (Homo sapiens, UniProt Q16774, R41A); enzyme activity, NADH-coupled; 2000 µM): 1.52 s⁻¹ and 1.17 s⁻¹ and 1.15 s⁻¹
CCn1c(C(=O)N(C2CC2)C2CC2)cc2c3c(ncn3C)c(Nc3cc(C)n(C)n3)nc21  Vmax (Cytochrome P450 2J2 (CYP2J2, Homo sapiens, UniProt P51589); substrate, item: metabolite M1 formation): 0.5 pmol/min/pmol
O=C(COc1cc(Cl)ccc1Cl)Nc1cc(C2CC2)nn1C1CCC(F)(F)CC1  Emax (Kir3.1/Kir3.4; thallium flux, activator; HEK293; baseline: standard compound): 31%
CCC(F)(F)c1nc2nc(C)cc(Nc3ccc(S(F)(F)(F)(F)F)cc3)n2n1  robust Z-score (pyrD; enzyme activity, inhibitor, colorimetric HTS, item: DCIP reduction; 3 µM; direction not given): 20.4
COC(=O)c1ccc(NC(=O)COc2ccc(Cl)cc2Cl)s1  activity (Kir3.1/Kir3.4; activator, thallium flux; HEK293; concentration not given): inactive
O=C(CN1C(=O)S/C(=C\c2ccc(Cl)cc2)C1=O)c1ccc([N+](=O)[O-])cc1  log IC50 (AKR1B1; enzyme activity, inhibitor): 2.67 log nM
Cc1ccc(C(C)C)cc1O  Hill coefficient (uncharacterized protein (Solanum tuberosum, UniProt M0ZZL3); enzyme activity): 1 ± 0.1
O=S(=O)(O)C1CCNCC1  normalised MST signal (Sodium- and chloride-dependent taurine transporter (SLC6A6, Homo sapiens, UniProt P31641, G62A); binding, microscale thermophoresis; 244 nM, room temperature, added: 50 nM labelled protein; higher = more binding): 0.0208
C=CC(=O)N1CCN(c2nc(OC[C@@H]3CCCN3C)nc3c(F)c(-c4nc(N)cc(C)c4C(F)(F)F)c(Cl)cc23)[C@@H](C)C1  association rate constant (GTPase KRas, GDP-bound (KRAS, Homo sapiens, UniProt P01116, A146T); binding, surface plasmon resonance): 131000 ± 1500 M⁻¹ s⁻¹
C[S+](CC[C@H](N)C(=O)[O-])C[C@H]1O[C@@H](n2cnc3c(N)ncnc32)[C@H](O)[C@@H]1O (stereo partly shown)  apparent Vmax (Histone-lysine N-methyltransferase 2C (KMT2C, Homo sapiens, UniProt Q8NEZ4); substrate, enzyme-coupled methylation; added: H3 peptide 50 µM): 0.4 ± 0.04 µM/min
CN(C)C(=O)C(CCN1CCC(O)(c2ccc(Cl)cc2)CC1)(c1ccccc1)c1ccccc1  effective gating valence (Calcium-activated potassium channel subunit alpha-1, with LRRC26 γ1 subunit (KCNMA1, Homo sapiens, UniProt Q12791); BK current, inside-out patch clamp; excised membrane patch; 30 µM, γ1 subunit coexpressed, added: nominally 0 Ca2+ cytosolic): 1.18 elementary charges
CCN1CCC[C@H]1CNC(=O)c1c(O)c(Cl)cc(Cl)c1OC  log2 fold change (Probable G-protein coupled receptor 141 (GPR141, Homo sapiens, UniProt Q7Z602); β-arrestin recruitment, TANGO luminescence, item: GPR141; concentration not given; baseline: basal luminescence): 0.475
C=C1CN(S(=O)(=O)c2ccc(C)cc2)CCCN(Cc2ccccc2)CCCN(S(=O)(=O)c2ccc(C)cc2)C1  FLuc/RLuc ratio (Protein transport protein Sec61 subunit alpha isoform 1 (Homo sapiens, UniProt P61619); item: control signal peptide-FLuc reporter; HEK293; 0.12 mM, 6 h): 1.13
O=c1nc(SCc2cc(F)cc(C(F)(F)F)c2)nc(SCc2ccc3nc(Cl)ccc3c2)[nH]1  mean decatenated DNA (DNA topoisomerase 2-alpha (TOP2A, Homo sapiens, UniProt P11388); decatenation; 31.25 µM): 0.1%
CCc1cc(NC(=O)COc2ccc(Cl)cc2Cl)n(C2CCC(F)(F)CC2)n1  Emax (Kir3.1/Kir3.4; thallium flux, activator; HEK293; baseline: standard compound): 76%
COc1cc(Nc2ncc3c(n2)-c2ccc(Cl)cc2C(c2c(F)cccc2OC)=NC3)ccc1C(=O)O  remaining activity (GRK4; kinase activity; 1 µM): 109%
C=CC(=O)N1CCC(COCC(=O)N2CCN(c3nc(-c4cnc(N)nc4C(F)F)nc(N4CCOC[C@@H]4C)n3)CC2)CC1  remaining binding (Tyrosine-protein kinase receptor TYRO3 (TYRO3, Homo sapiens, UniProt Q06418); KINOMEscan; 1 µM): 100%
CN1CCN(c2cc(-c3ccncc3)c(-c3ccc4ccccc4c3)nn2)CC1  activation (Prostacyclin receptor (PTGIR, Homo sapiens, UniProt P43119); agonist, FLIPR; 12.5 µM): -0.3%
COc1cc(/C=C2\SC(=O)N(CC(=O)c3ccc([N+](=O)[O-])cc3)C2=O)cc(OC)c1OC  Hill slope (AKR1B1; enzyme activity, inhibitor): -0.461
O=C(COP(=O)(O)O)[C@@H](O)[C@H](O)[C@H](O)COP(=O)(O)O  thermal stability ratio (Small ribosomal subunit protein uS19 (Homo sapiens, UniProt P62841); thermal proteome profiling, item: RPS15; HepG2 cell lysate; concentration not given, 57 over 37 °C, mean; baseline: compound over control): 0.59
CC/C=C(\C)C=O  conversion (Enoyl-ACP reductase (Thermus thermophilus, UniProt P83818); substrate, biocatalytic transformation; pH 6.2, 30 °C, anaerobic, added: NADPH): 17%
N#Cc1ccc2[nH]cc(CCCCN3CCN(c4ccc5oc(C(N)=O)cc5c4)CC3)c2c1  Hill coefficient (Sodium-dependent serotonin transporter (SLC6A4, Homo sapiens, UniProt P31645, E493N); [3H]5-HT uptake, inhibitor; COS-7): 1.2 ± 0.17
CCCCCCCCCCCc1ccc([C@H]2CC[C@H]([N+](C)(C)CCC)CC2)cc1.[I-]  Ki/Km ratio (Sphingosine kinase 2 (SPHK2, Homo sapiens, UniProt Q9NRA0); inhibitor, radiometric flash-plate; cell lysate; added: sphingosine 5 µM): 2.2
C[C@]12C[C@H](O)[C@H]3[C@@H](CCC4=CC(=O)CC[C@@]43C)[C@@H]1CC[C@@H]2C(=O)CO  18-hydroxylation product formation rate (Cytochrome P450 11B1, mitochondrial (CYP11B1, Homo sapiens, UniProt P15538); substrate; 100 µM, 37 °C, phospholipid vesicles): 1.2 ± 0.1 min⁻¹
CCC(F)(F)c1nc2nc(C)cc(Nc3ccc(C(F)(F)F)cc3)n2n1  robust Z-score (pyrD; enzyme activity, inhibitor, colorimetric HTS, item: DCIP reduction; 3 µM; direction not given): 19
O=C(/C=C/c1ccc(O)c(O)c1)O[C@H](Cc1ccc(O)c(O)c1)C(=O)O  delta Tm (Peroxiredoxin-1 (PRDX1, Homo sapiens, UniProt Q06830); thermal stability, differential scanning fluorimetry; 800 µM; baseline: no compound): 15.1 °C
O=C(CN1C(=O)S/C(=C\c2ccc(Br)cc2)C1=O)c1ccc([N+](=O)[O-])cc1  log IC50 (AKR1B1; enzyme activity, inhibitor): 2.69 log nM
COc1cc(F)cc2c(N3CCN4c5ccccc5NC(=O)C4C3)c(C#N)nnc12 (stereo not shown)  efficacy (Metabotropic glutamate receptor 7 (Grm7, Rattus norvegicus, UniProt P35400); negative allosteric modulator; rat; baseline: L-AP4 max): 16%
CC1(C)CC[C@]2(C(=O)O)CC[C@]3(C)C(=CC[C@@H]4[C@@]5(C)C[C@@H](O)[C@H](OC(=O)/C=C/c6ccc(O)cc6)C(C)(C)[C@@H]5CC[C@]43C)[C@@H]2C1 (relative stereo)  photoaffinity labelling (Presenilin-1, N-terminal fragment (PSEN1, Homo sapiens, UniProt P49768); S1′ subsite probe binding, competitor, item: PS1 labelled by JC-8; HeLa membranes): decreased

For quick reference, copied from above:
COc1cc(Nc2ncc3c(n2)-c2ccc(Cl)cc2C(c2c(F)cccc2OC)=NC3)ccc1C(=O)O  remaining activity (GRK4; kinase activity; 1 µM): 109%
C=CC(=O)N1CCC(COCC(=O)N2CCN(c3nc(-c4cnc(N)nc4C(F)F)nc(N4CCOC[C@@H]4C)n3)CC2)CC1  remaining binding (Tyrosine-protein kinase receptor TYRO3 (TYRO3, Homo sapiens, UniProt Q06418); KINOMEscan; 1 µM): 100%
